Assay results gathered from unrelated publications.
A part holds a random share of what one study measured.

Sample 1
Target: Histone acetyltransferase KAT6A, winged helix 1, GST fusion (KAT6A, Homo sapiens, UniProt Q92794, residues 1-85)
Technique: protein binding microarray
Form: double-stranded DNA, one strand shown
Matrix: in vitro
Tested at: not given
Setting: 8-mer, flanks averaged, mean of 2 arrays, mostly near background
Relative to: not given
Direction: higher = stronger binding
Target sequence (chain): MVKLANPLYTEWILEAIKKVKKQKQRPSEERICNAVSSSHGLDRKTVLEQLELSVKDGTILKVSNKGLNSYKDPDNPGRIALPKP
`GGGTTGAA` gave an E-score of 0.0661.
For `AGTAAATG`, the E-score was -0.0733.
With `AAGCGGGC` the E-score was 0.218.
For `CGCGCGAA`, the E-score was 0.404.
`AGTGTGAG` has an E-score of -0.206.

Sample 2
Target: Interferon regulatory factor 7, full length, phosphomimetic (IRF7, Homo sapiens, UniProt Q92985, residues 1-503, S101K/S471D/S472D/S475D/S476D/S477D/S483D/S484D/S487D)
Technique: protein-binding microarray
Form: double-stranded DNA, one strand shown
Matrix: in vitro
Tested at: 250 nM
Setting: 60-bp whole probe
Added: salmon DNA 0.4 mg/ml
Relative to: random background probes
Direction: higher = stronger binding
All sequences stand within: GCCTAGCAC … GTGCTAGGTCTTGATTCGCTTGACGCTGCTG
Residues (chain): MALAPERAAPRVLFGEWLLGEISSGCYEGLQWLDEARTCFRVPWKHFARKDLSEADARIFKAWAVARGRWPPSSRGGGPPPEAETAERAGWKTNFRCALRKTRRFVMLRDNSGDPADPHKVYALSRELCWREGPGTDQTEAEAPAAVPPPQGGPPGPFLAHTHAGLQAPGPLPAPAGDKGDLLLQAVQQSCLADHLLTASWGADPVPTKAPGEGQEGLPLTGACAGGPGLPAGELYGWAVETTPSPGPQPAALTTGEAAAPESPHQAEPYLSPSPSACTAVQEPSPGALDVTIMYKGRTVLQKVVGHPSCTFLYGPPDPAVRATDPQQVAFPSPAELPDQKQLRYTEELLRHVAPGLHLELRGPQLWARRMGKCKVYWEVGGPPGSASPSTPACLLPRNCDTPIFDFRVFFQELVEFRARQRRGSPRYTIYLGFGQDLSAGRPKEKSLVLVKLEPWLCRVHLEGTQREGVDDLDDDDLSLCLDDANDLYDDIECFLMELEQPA
`TTAGGTTTCCTTAGCCTTTA` gave a log fluorescence of 0.914 z-score.
`AATATTATAACACTCTTCTT` has a log fluorescence of 0.783 z-score.
`GACGGCCTCGGACTGGGGAC` gave a log fluorescence of -0.151 z-score.
`CTTGAACCTGGGAGGTGGAG` has a log fluorescence of -0.648 z-score.
With `GACGGTTTCGGTATCGCGAC` the log fluorescence was 10.9 z-score.
`CTACTTCTCTTTTTGCTTTC` gave a log fluorescence of 2.65 z-score.

Sample 3
Target: Sal-like protein 4, full length isoform B (SALL4, Homo sapiens, UniProt Q9UJQ4-2, residues 1-616)
Technique: universal PBM
Form: double-stranded DNA, one strand shown
Matrix: in vitro
Tested at: not given
Setting: 8-mer, flanks averaged, mean of replicates
Direction: higher = stronger binding
Construct (chain): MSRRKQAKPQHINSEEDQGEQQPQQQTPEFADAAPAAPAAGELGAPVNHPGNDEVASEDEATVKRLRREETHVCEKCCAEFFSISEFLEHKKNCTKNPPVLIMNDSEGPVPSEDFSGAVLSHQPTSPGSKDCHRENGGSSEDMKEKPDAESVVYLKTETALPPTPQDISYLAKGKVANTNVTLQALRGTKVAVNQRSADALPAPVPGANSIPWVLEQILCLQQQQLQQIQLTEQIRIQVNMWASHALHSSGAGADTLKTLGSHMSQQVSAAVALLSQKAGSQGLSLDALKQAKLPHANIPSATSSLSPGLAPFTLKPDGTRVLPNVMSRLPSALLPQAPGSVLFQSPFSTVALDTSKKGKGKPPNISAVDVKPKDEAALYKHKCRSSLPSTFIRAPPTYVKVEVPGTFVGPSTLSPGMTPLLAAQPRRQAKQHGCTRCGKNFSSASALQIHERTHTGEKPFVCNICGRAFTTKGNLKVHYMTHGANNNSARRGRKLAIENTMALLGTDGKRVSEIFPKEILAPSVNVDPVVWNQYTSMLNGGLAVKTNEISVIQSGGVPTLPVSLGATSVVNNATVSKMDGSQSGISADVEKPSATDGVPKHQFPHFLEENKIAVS
For `AGGACCCC`, the E-score was -0.244.
`ACTAACTA` has an E-score of 0.0358.
For `GACACGCC`, the E-score was -0.343.
`ACGCAGCA` has an E-score of -0.111.
`AAGGGTGG` gave an E-score of -0.0641.
With `TATTTGCA` the E-score was 0.28.

Mixed results
`PhoQ, residues 284 288 289 292 302 303 SACGEM` gave a fold induction of 15.2 (PhoP, residues 12 14 15 18 19 IFFTR (Escherichia coli, UniProt P23836); Sort-seq, measured: YFP reporter; E. coli; PhoQ-PhoP variant library, added: 10 µM Mg2+; relative to: high Mg2+ state, higher = stronger signaling).

For quick reference, copied from above (sample 3):
With `TATTTGCA` the E-score was 0.28.
